# Published values from different studies.
# Parts stem from different laboratories: compare values within a part only. Positions count from the first letter of the parent shown.

# Study 1
# Target: Dual specificity tyrosine-phosphorylation-regulated kinase 4 (DYRK4, Homo sapiens, UniProt Q9NR20)
# Effect on: enzyme activity
# Action: inhibitor
# Tested at: 0.5 µM
# Reference: control
# Construct (Q9NR20 1-520): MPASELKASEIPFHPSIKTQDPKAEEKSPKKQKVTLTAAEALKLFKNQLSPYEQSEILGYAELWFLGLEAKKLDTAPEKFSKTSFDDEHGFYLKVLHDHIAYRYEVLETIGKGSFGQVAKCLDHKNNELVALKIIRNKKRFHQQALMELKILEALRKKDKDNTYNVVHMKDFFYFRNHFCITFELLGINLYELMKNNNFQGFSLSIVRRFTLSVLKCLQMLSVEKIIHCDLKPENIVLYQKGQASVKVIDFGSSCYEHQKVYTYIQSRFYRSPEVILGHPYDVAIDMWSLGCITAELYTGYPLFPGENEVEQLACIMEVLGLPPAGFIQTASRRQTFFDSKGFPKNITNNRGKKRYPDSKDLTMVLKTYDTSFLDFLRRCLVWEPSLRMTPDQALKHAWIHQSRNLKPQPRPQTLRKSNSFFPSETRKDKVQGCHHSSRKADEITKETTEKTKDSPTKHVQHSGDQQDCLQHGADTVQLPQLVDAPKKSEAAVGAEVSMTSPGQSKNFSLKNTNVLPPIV
Structure (SMILES),remaining activity [%]
CC(C)N(CCC(=O)c1ccc2ccccc2c1)Cc1ccccc1,88.5
CC(C)(C)c1nc2c3cc[nH]c(=O)c3c3cc(F)ccc3c2[nH]1,104
NC(=O)c1ccc(-c2nc(-c3ccc4c(c3)OCCO4)c(-c3ccccn3)[nH]2)cc1,85.6
O=Nc1c(-c2c(O)[nH]c3cc(Br)ccc23)[nH]c2ccccc12,99.4
O=Nc1c(-c2c(O)[nH]c3ccccc23)[nH]c2ccccc12,96.8
N#Cc1cnc2cnc(NCc3cccnc3)cc2c1Nc1ccc(F)c(Cl)c1,84.4
Cc1ccc(S(=O)(=O)/C=C/C#N)cc1,95.1
O=C1NC(=O)/C(=C/c2ccc3c(c2)OC(F)(F)O3)S1,97.7
Clc1ccc(Nc2nnc(Cc3ccncc3)c3ccccc23)cc1,97.5
CN(C)S(=O)(=O)c1ccc2c(c1)/C(=C/c1cc3c([nH]1)CCCC3)C(=O)N2,98.2
O=c1cc(N2CCOCC2)oc2c(-c3ccccc3)cccc12,91.9
O=C1NC(=O)c2c1c1c3ccccc3[nH]c1n1cncc21,107
O=C1NC(=O)c2c1c1c3ccccc3[nH]c1c1[nH]c3cc(Br)ccc3c21,86
COc1cc2c(Nc3ccc(Br)cc3F)ncnc2cc1OCC1CCN(C)CC1,102
CCCCc1c(-c2ccc(O)cc2)[nH]c2nccnc12,99.7
O=C1Nc2ccccc2/C1=C\c1c(Cl)[nH]c2ccccc12,97.4
c1ccc2c(-c3ccncc3)c[nH]c2c1,98.7
CCCCc1c(-c2ccc(OC)cc2)[nH]c2nccnc12,97.7
N#CC(c1ccnc(NCCc2cccnc2)n1)c1nc2ccccc2s1 (stereo not drawn),65

# Study 2
# Target: Sal-like protein 4, full length isoform A (SALL4, Homo sapiens, UniProt Q9UJQ4, residues 1-1053)
# UniProt Q9UJQ4, sequence (whole entry, looked up): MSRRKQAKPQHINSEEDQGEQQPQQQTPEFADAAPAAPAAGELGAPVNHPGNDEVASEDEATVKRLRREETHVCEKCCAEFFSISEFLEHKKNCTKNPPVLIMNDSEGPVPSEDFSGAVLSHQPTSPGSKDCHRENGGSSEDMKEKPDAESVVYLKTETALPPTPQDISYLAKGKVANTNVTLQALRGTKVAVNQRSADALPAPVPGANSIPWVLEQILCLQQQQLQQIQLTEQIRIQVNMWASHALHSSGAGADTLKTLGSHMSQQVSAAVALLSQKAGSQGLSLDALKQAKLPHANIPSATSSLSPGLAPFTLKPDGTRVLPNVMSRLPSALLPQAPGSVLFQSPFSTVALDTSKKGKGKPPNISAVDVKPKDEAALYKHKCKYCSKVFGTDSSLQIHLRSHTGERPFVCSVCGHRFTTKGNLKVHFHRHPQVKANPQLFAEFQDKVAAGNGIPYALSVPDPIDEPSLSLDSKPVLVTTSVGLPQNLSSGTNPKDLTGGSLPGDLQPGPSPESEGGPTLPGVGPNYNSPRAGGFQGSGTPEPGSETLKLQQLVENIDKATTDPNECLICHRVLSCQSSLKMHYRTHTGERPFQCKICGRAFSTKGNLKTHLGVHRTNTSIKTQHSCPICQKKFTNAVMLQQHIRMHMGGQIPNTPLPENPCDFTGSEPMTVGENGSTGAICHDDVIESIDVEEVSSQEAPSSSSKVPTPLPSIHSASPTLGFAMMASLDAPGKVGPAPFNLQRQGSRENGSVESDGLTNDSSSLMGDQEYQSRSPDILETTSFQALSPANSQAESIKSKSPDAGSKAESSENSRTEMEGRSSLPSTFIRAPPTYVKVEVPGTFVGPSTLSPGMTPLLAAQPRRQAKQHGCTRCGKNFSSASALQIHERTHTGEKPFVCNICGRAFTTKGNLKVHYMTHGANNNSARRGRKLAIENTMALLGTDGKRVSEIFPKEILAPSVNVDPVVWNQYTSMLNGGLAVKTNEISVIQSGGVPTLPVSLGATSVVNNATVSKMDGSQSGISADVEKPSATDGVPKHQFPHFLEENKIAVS
# Method: universal PBM
# Molecule type: double-stranded DNA, one strand shown
# Matrix: in vitro
# Tested at: 600 nM
# Notes: 8-mer, flanks averaged, mean of replicates
# Reading: higher = stronger binding
Oligonucleotide,E-score
GTCGAAAA,0.0289
AAGGATGC,-0.0814
CTGCGGTC,-0.336
GATCGTCA,0.0818
CCCCCATA,-0.051
ATGGAGGC,-0.112
ATTCAGAG,0.008
CGGTCTAC,-0.119

# Study 3
# Variant: A35V
# Target: ABI1, truncated, D143A, DHFR fusion (Arabidopsis thaliana)
# Method: DHFR PCA, deep sequencing
# Matrix: yeast
# Notes: methotrexate growth selection, single substitutions
# Reference: wild-type fitted maximum
# Reading: higher = stronger binding
# Starting sequence: PYL1, truncated, DHFR fusion (Arabidopsis thaliana); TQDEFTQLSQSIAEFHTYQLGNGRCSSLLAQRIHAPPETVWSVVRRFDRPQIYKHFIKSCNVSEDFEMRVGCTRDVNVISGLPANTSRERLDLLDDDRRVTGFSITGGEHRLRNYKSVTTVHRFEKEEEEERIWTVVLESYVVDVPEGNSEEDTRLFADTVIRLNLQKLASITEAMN; partner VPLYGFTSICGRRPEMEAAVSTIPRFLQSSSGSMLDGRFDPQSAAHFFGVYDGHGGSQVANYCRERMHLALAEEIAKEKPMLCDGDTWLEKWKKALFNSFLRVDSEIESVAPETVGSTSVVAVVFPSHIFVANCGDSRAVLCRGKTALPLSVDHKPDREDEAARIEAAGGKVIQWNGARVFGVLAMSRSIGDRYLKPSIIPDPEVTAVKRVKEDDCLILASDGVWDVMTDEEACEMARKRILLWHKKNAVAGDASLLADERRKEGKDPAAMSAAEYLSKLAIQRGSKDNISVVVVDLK
together with,relative binding score [%]
(+)-ABA 17 µM,38
(+)-ABA 2500 µM,92
(+)-ABA 0.032 µM,0.617
(+)-ABA 710 µM,89.9
(+)-ABA 4.8 µM,16.1
(+)-ABA 200 µM,76.4

# Study 4
# Target: 5-hydroxytryptamine receptor 1B (HTR1B, Homo sapiens, UniProt P28222)
# UniProt P28222, sequence (whole entry, looked up): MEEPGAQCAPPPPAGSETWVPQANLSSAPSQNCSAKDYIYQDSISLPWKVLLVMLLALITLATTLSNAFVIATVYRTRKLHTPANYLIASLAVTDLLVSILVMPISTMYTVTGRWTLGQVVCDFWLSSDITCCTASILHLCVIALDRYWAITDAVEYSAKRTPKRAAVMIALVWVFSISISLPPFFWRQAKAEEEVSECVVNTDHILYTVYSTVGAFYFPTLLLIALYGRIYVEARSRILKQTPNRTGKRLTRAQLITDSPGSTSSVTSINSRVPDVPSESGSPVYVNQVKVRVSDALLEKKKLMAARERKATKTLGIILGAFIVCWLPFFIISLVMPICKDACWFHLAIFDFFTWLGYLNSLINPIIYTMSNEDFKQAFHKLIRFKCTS
# Effect on: ligand displacement
# Method: radioligand
# Tested at: 10 µM
Structure (SMILES),inhibition [%]
N#Cc1ccc(Nc2ccc3[nH]c(=O)[nH]c3c2)c(Cl)c1,6.7
CN([C@@H]1CCc2c(CC(=O)O)c3cc(S(C)(=O)=O)ccc3n2C1)S(=O)(=O)c1ccc(F)cc1,2.61
Cc1c[nH]c2nccc(Oc3c(F)cc(Nc4cc(Cl)nc(N)n4)cc3F)c12,-5.28
"CNC(=O)Nc1ccc2c(c1)C1(CC2)OC(=O)N(CC(=O)N(Cc2ccc(F)cc2)[C@@H](C)C(F)(F)F)C1=O (single isomer, unassigned)",11.2
CCCCN(CCCC)C(=O)CN1C[C@@H](c2cc(OC)c3c(c2)OCO3)[C@H](C(=O)O)[C@H]1CC(C)(C)CCC,-2.98
CC1=C(C#N)[C@@H](c2ccc3[nH]nc(C)c3c2)C(C#N)=C(c2ccc(Cl)cc2)N1,17.2
O=C(N1CCS(=O)(=O)CC1)N1C[C@H](c2ccc(OC(F)(F)F)cc2)C[C@H](c2nc(C3CC3)no2)C1,30.8
CC(=O)N1CCC(c2ccc(C(=O)NC(=N)N)cc2C(F)(F)F)CC1,14.6
O=C(Nc1cccnn1)N1CC(CC=Cc2cncc(Oc3ccc(C(F)(F)F)cn3)n2)C1,4.8
Cn1cc(Cl)c2c(Oc3c(F)cc(Nc4cc(Cl)nc(N)n4)cc3F)ccnc21,5.3
CCNC(=O)c1cc2c(N3CCOC[C@@H]3C)ccnc2[nH]1,-1.66
Cc1nc(Cc2cccc(C(F)(F)F)c2)sc1-c1ccc(C(N)=O)nc1,7.99
O=C(O)c1cc(-c2ccc(C3CCNCC3)cc2)c2ccc(-c3ccc(C(F)(F)F)cc3)cc2c1,20.4
Cc1nccc(COC(=O)N2C[C@@H]3[C@@H](CNC(=O)c4ccc5[nH]nnc5c4)[C@@H]3C2)n1,4.4
CCS(=O)(=O)c1cc2cc(C[C@@](O)(CC(C)(C)c3ccc(F)cc3C(N)=O)C(F)(F)F)[nH]c2cn1,4.85
